Published values from different studies.
Compare with care: the assays were run in different laboratories. Values joined by “and” are separate records of one study, mostly repeats; a detail may differ. ± marks the error that the study gave.
gag-pol RT RNase H domain: Gag-Pol polyprotein, RT RNase H domain (gag-pol, Human immunodeficiency virus type 1 group M subtype B, UniProt P04585)
gag-pol integrase: Gag-Pol polyprotein, integrase (gag-pol, Human immunodeficiency virus type 1 group M subtype B, UniProt P04585)
gag-pol reverse transcriptase p66/p51: Gag-Pol polyprotein, reverse transcriptase p66/p51 (gag-pol, Human immunodeficiency virus type 1 group M subtype B, UniProt P04585)

| SMILES | target | assay | system | setting | IC50 |
| --- | --- | --- | --- | --- | --- |
| O=C(O)c1ccc(-c2cccc(/C=N/NC(=O)c3ccc(O)c(O)c3)c2)cc1 | gag-pol RT RNase H domain | RNase H activity, inhibitor | HIV-1 | added: 10 mM Mg2+ | 400 ± 200 nM |
| CCOCn1c(C(=O)c2cc(C)cc(C)c2)c(CC)c(=O)n(O)c1=O | gag-pol integrase | strand transfer, inhibitor, gel-based | HIV-1 | – | > 111000 nM |
| COc1cccc(-c2ccc(Sc3cc(=O)n(O)c(=O)[nH]3)cc2)c1 | gag-pol integrase | strand transfer activity, inhibitor | HIV-1 | – | 4000 nM |
| O=C(O)c1ccc(-c2cccc(/C=N/NC(=O)c3cc(O)c(O)c(O)c3)c2)cc1 | gag-pol RT RNase H domain | RNase H activity | wild-type p66/p51 RT | – | 200 ± 100 nM |
| O=c1cc(CN2CCN(C(c3ccccc3)c3ccccc3)CC2)c2ccc(O)c(O)c2o1 | gag-pol reverse transcriptase p66/p51 | RNase H activity, inhibitor | p66/p51 RT heterodimer | pH 8.0, added: 10 mM Mg2+ | 1900 nM |
| NC(=O)c1c(N)sc2c1CCCCC2 | Gag-Pol polyprotein, RT polymerase domain (gag-pol, Human immunodeficiency virus type 1 group M subtype B, UniProt P04585) | RNA-dependent DNA polymerase activity, inhibitor | – | wild-type RT | > 50000 nM |
| O=c1cc(CN2CCN(c3cccc(Cl)c3)CC2)c2ccc(O)c(O)c2o1 | gag-pol reverse transcriptase p66/p51 | RNase H activity, inhibitor, fluorescence | HIV-1 | pH 7.4, added: 1 mM Mg2+ | ~800 nM and 800 nM |
| O=c1cc(Sc2ccccc2-c2ccc(C(F)(F)F)cc2)[nH]c(=O)n1O | gag-pol integrase | strand transfer activity, inhibitor | HIV-1 | – | > 100000 nM |
| COc1cc(/C=C/c2ccc3ccc(C(=O)O)c(O)c3n2)cc(O)c1O | Gag-Pol polyprotein, integrase (gag-pol, Human immunodeficiency virus type 1 group M subtype B, UniProt P04585, C1427S) | integrase DNA binding, fluorescence anisotropy | – | full-length integrase, 10 mM Mg2+ | 750 nM |
| O=c1cc(Sc2ccc(-c3cccc(C(F)(F)F)c3)cc2)[nH]c(=O)n1O | gag-pol integrase | strand transfer activity, inhibitor | HIV-1 | – | > 100000 nM |
| O=C(O)Cc1cc(=O)oc2c(O)c(O)ccc12 | gag-pol reverse transcriptase p66/p51 | inhibitor | – | – | 1100 nM |

For quick reference, copied from above:
| SMILES | target | assay | system | setting | IC50 |
| --- | --- | --- | --- | --- | --- |
| O=C(O)c1ccc(-c2cccc(/C=N/NC(=O)c3cc(O)c(O)c(O)c3)c2)cc1 | gag-pol RT RNase H domain | RNase H activity | wild-type p66/p51 RT | – | 200 ± 100 nM |
